Measured values of several laboratories.
Compare with care: the assays were run in different laboratories. Values joined by “and” are separate records of one study, mostly repeats; a detail may differ.
Target: Serine/threonine-protein kinase Nek3 (NEK3, Homo sapiens, UniProt P51956)

Structure (SMILES) | assay | system | setting | scale | measurement | result
CN1CC[C@@H](COc2cnc(C#N)cc2-c2ccn3nc(NC(=O)C4CC4)cc3c2)C1 | enzyme activity, inhibitor | – | 1 µM | – | inhibition | -27%
C=CC(=O)N1CCc2ccc(-n3c(=O)ccc4cnc5ccc(-c6cnn(C)c6)cc5c43)cc21 | KINOMEscan | – | 1 µM | relative to: DMSO control | remaining binding | 82%
CS(=O)(=O)Nc1cccc(-c2csc3cnc(Nc4ccc(N5CCN(CCCCCOc6cccc7c6C(=O)N(C6CCC(=O)NC6=O)C7=O)CC5)cc4)nc23)c1 (centres unmarked) | probe labelling, inhibitor, KiNativ chemoproteomics | MOLT-4 | 1 µM | – | inhibition | 57.9%
COc1cc(Nc2nc(C)cc(-c3cnn4nc(OC)ccc34)n2)cc(C(F)(F)F)c1 | inhibitor | – | 1 µM | relative to: control | remaining activity | 92%
CNC1C[S+]2CC[S+]3CC[S+](C1)[Ru-4]321([N]=C=S)[n]2c3ccc(OC)cc3c3c4c(c5cc(F)c[n+]1c5c32)C(=O)NC4=O (centres unmarked) | KinomeScan | – | 0.1 µM | relative to: untreated | remaining binding | 79%
Cc1nc2c(F)cc(-c3nc(Nc4ccc(CNC(=O)CCCCCCC(=O)NO)cc4)ncc3F)cc2n1C(C)C | enzyme activity, inhibitor | – | 1 µM | – | inhibition | 88%
C=CC(=O)Nc1cc(-c2nn(C3CCN(CCNC(=O)[C@H](C)CCC45CC6CC(CC(C6)C4)C5)CC3)c3ncnc(N)c23)ccc1Oc1ccccc1 | inhibitor, KiNativ profiling | biochemical | 2 µM | – | inhibition | 15.6%
CC(C)=CC1OC(C)(C)C2C=C3C(=O)C(Cl)=CC(O)C3C3C(O)C4OC4C(=O)C132 (centres unmarked) | cell-free assay, competition with immobilised ligand | – | 10 µM | – | remaining binding | 62%
Nc1ncc2c(n1)-c1c([nH]c3ccc(C4=CCOCC4)cc13)CCC2 | binding, competition with immobilised ligand | – | 1 µM | – | remaining binding | 82%
NC(=O)C[C@H]1CCc2sc3ncnc(O[C@H]4CC[C@H](N5CCOCC5)CC4)c3c21 | enzyme activity, inhibitor | – | 10 µM | – | inhibition | -10%
C=CC(=O)N1CCCC(n2c(=O)c3ncccc3n(Cc3ccc(Oc4ccccc4)cc3)c2=O)C1 (centres unmarked) | cell-free assay, competition with immobilised ligand | – | 1 µM | – | remaining binding | 65%
COCC12C(=O)NC3C4(C(OC)CC1O)C1CC5(O)C(OC)C(O)C(OC(C)=O)(C1C5OC(=O)c1ccccc1)C3(O)C(OC)C24 (centres unmarked) | kinase activity, inhibitor, ProQinase kinase profiling | – | 25 µM | relative to: control | remaining activity | 118% and 114%
CNC(=O)C[C@H](Cc1ccc(C#N)cc1)NC(=O)c1cc(-c2ccc(CN[C@H](C)c3ccc(C)cc3)o2)ccc1Cl | enzyme activity, inhibitor | – | 1 µM | – | activity vs control | 117%
COc1c(Cl)cccc1Nc1c(-c2ccncc2C#C[C@@]2(C)CCCN2C(=O)/C=C/CN(C)C)[nH]c2c1C(=O)NCC2 | binding, competition with immobilised ligand | – | 3 µM | – | remaining binding | 63%

Some of these lines once more:
Structure (SMILES) | assay | system | setting | scale | measurement | result
Cc1nc2c(F)cc(-c3nc(Nc4ccc(CNC(=O)CCCCCCC(=O)NO)cc4)ncc3F)cc2n1C(C)C | enzyme activity, inhibitor | – | 1 µM | – | inhibition | 88%
COCC12C(=O)NC3C4(C(OC)CC1O)C1CC5(O)C(OC)C(O)C(OC(C)=O)(C1C5OC(=O)c1ccccc1)C3(O)C(OC)C24 (centres unmarked) | kinase activity, inhibitor, ProQinase kinase profiling | – | 25 µM | relative to: control | remaining activity | 118% and 114%
